{"data": "Experimental data gathered from unrelated publications", "note": "Every numbered part comes from another study and shows a few of its results, in no order."}
{"data": "Block 1", "target": "Interferon regulatory factor 3, full length, phosphomimetic (IRF3, Homo sapiens, UniProt Q14653, residues 1-427, S386D/S396D/S398D/S402D/T404D/S405D)", "method": "protein-binding microarray", "form": "double-stranded DNA, one strand shown", "medium": "in vitro", "tested at": "2540 nM top", "notes": "60-bp whole probe", "added": "salmon DNA 0.4 mg/ml", "baseline": "random background probes", "direction": "higher = stronger binding", "Residues (chain)": "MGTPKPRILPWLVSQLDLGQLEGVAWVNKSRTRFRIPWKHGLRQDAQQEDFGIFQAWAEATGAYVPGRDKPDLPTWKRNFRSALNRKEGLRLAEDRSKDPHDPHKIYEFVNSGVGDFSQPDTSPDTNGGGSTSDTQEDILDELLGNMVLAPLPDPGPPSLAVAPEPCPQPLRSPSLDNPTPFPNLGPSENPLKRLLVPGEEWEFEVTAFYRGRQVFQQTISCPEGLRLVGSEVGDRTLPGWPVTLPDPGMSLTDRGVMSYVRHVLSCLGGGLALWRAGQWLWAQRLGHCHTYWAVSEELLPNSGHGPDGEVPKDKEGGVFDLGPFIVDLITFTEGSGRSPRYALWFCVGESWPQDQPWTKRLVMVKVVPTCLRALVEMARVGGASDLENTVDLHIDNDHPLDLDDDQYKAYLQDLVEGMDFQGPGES"}
{"Sequence": "GCCTAGCACTCAGGTCTTCACTTGGCACTGTGCTAGGTCTTGATTCGCTTGACGCTGCTG", "fitted relative affinity": "-0.13 z-score"}
{"Sequence": "GCCTAGCACGACGATTCCAGTTTGGAGACGTGCTAGGTCTTGATTCGCTTGACGCTGCTG", "fitted relative affinity": "1.28 z-score"}
{"Sequence": "GCCTAGCACTTAGAGCTGGGGTTTCGATTAGTGCTAGTCTTGATTCGCTTGACGCTGCTG", "fitted relative affinity": "0.884 z-score"}
{"data": "Block 2", "target": "Sal-like protein 4, full length isoform A (SALL4, Homo sapiens, UniProt Q9UJQ4, residues 1-1053)", "method": "universal PBM", "form": "double-stranded DNA, one strand shown", "medium": "in vitro", "tested at": "600 nM", "notes": "8-mer, flanks averaged, mean of replicates", "direction": "higher = stronger binding", "chain of UniProt Q9UJQ4 (whole entry, looked up)": "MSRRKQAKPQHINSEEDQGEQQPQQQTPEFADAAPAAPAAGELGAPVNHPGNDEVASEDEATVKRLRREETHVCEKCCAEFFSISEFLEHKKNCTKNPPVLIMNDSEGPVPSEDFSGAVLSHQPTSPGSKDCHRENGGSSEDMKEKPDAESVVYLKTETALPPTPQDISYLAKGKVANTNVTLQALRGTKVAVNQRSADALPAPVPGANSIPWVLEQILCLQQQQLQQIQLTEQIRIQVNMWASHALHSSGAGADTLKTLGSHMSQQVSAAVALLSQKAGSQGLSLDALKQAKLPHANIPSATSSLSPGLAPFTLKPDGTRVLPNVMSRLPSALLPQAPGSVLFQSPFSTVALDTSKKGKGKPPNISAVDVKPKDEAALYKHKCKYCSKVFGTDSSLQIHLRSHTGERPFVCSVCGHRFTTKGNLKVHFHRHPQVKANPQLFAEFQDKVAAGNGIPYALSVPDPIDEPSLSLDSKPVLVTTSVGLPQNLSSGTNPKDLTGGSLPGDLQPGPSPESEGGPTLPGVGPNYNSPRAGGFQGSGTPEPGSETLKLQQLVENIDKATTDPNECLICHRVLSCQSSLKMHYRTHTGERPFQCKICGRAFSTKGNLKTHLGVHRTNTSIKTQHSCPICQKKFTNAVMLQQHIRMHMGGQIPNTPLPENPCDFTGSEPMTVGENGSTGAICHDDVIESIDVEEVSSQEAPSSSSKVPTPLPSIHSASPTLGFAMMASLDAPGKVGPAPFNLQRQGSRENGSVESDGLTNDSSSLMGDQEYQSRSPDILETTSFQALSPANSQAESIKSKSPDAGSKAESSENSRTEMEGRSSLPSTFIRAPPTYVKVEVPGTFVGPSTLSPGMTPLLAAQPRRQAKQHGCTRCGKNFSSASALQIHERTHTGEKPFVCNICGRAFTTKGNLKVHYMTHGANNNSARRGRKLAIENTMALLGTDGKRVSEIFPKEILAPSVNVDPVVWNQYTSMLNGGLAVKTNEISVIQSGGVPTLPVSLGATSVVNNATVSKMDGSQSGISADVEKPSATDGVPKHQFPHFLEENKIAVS"}
{"Sequence": "TCACCTAA", "E-score": -0.0118}
{"Sequence": "TGGCCAAA", "E-score": -0.0321}
{"Sequence": "GCCGACTA", "E-score": -0.139}
{"Sequence": "AAGCCGCG", "E-score": -0.208}
{"data": "Block 3", "target": "Histone acetyltransferase KAT6A, both winged helices, GST fusion (KAT6A, Homo sapiens, UniProt Q92794, residues 1-181)", "method": "protein binding microarray", "form": "double-stranded DNA, one strand shown", "medium": "in vitro", "tested at": "not given", "notes": "8-mer, flanks averaged, mean of 2 arrays, mostly near background", "baseline": "not given", "direction": "higher = stronger binding", "Residues (chain)": "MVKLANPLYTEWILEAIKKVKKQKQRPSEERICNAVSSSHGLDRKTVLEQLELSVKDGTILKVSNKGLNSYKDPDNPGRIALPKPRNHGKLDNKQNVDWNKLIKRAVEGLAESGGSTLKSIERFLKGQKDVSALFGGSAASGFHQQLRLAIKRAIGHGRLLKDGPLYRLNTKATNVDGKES"}
{"Sequence": "ACGAAATC", "E-score": -0.0457}
{"Sequence": "CAGCGTGG", "E-score": 0.128}
{"Sequence": "CGAATTCG", "E-score": 0.183}
{"Sequence": "GTGCTAAC", "E-score": 0.114}
{"Sequence": "CCCCCGCG", "E-score": 0.283}
{"data": "Further values, each from its own experiment"}
{"Molecule": "PhoQ, residues 284 288 289 292 302 303 SCKMEA", "target": "PhoP, residues 12 14 15 18 19 LHSVW (Escherichia coli, UniProt P23836)", "test": "Sort-seq, item: YFP reporter", "test system": "E. coli", "conditions": "PhoQ-PhoP variant library, added: 10 µM Mg2+", "scale": "baseline: high Mg2+ state, higher = stronger signaling", "measurement": "fold induction", "value": 12.8}
